# Measurements from different studies.
# Cell line: MV4-11
Compound,read-out,method,tested at,time,endpoint,result
C/C(=N\NC(=O)c1cccc(S(=O)(=O)N2CCOCC2)c1)c1cc(Cl)ccc1O,cell growth or viability,resazurin,,96 h,EC50,422 nM
Cc1cc(-c2c[nH]nc2C(F)(F)F)nc2ccc3[nH]ncc3c12,cell growth or viability,resazurin,,72 h,IC50,797 nM
CCN(CC)CCCC(C)NCc1nn2c(-c3ccccc3)nnc2s1 (centres unmarked),cell growth or viability,ATP luminescence,,72 h,IC50,19200 nM
CC1CCc2c(c(-c3c[nH]nc3C(F)(F)F)nc3ccc4[nH]ncc4c23)C1 (centres unmarked),cell growth or viability,resazurin,,72 h,IC50,13.7 nM
COc1ccc(C[C@H]2COC(=O)[C@@H]2Cc2ccc(OCC(=O)Nc3ccc(C(=O)NO)cc3)c(OC)c2)cc1OC,cell growth or viability,CCK-8,,48 h,IC50,> 5000 nM
CCCCCCCCC=CCCCCCCCC(=O)OC(COC(=O)Cc1c(C)n(C(=O)c2ccc(Cl)cc2)c2ccc(OC)cc12)COP(=O)([O-])OCC[N+](C)(C)C (centres unmarked),cell growth or viability,MTT,,72 h,IC50,52400 nM
FC(F)(F)c1n[nH]cc1-c1nc2ccc3[nH]ncc3c2c2c1CCC2,cell growth or viability,resazurin,,72 h,IC50,63 nM
O=c1c(-c2cnn(-c3ccccc3)c2)c(C(F)(F)F)oc2c(O)c(O)ccc12,,immunoblot,concentration not given,,p27 protein level,no effect
c1cc2cc(c1)Cn1cc(nn1)Cn1nc(-c3ccc(N4CCNCC4)nc3)c3cnc(nc31)NCc1cn(nn1)C2,cell growth or viability,resazurin,,5 days,EC50,16600 nM
Cn1cc(-c2cc(N3CCCCS3(=O)=O)ccc2N[C@H]2CC[C@H](C)CC2)c2cc[nH]c2c1=O (stereo in doubt),cell growth or viability,CCK-8,,72 h,GI50,1.3 nM
COc1ccc(C[C@H]2COC(=O)[C@@H]2Cc2ccc(OCCCCCCCC(=O)NO)c(OC)c2)cc1OC,cell growth or viability,CCK-8,,48 h,IC50,1180 nM
Cc1cc(CN2CCN(c3c(Br)cnc4[nH]c(-c5ccc(N6CCN(C)CC6)cc5)nc34)CC2)no1,cell growth or viability,MTS,,72 h,IC50,62 nM
c1ccc(-n2cc(-c3nc4ccc5[nH]ncc5c4c4c3CCCC4)cn2)cc1,cell growth or viability,resazurin,,72 h,IC50,1080 nM
N#Cc1c(-c2ccc(Cl)cc2)cc(-c2cccs2)nc1SCc1ccc(C(=O)O)cc1,cell growth or viability,ATP luminescence,,72 h,IC50,28400 nM

# Some of these lines once more:
Compound,read-out,method,tested at,time,endpoint,result
COc1ccc(C[C@H]2COC(=O)[C@@H]2Cc2ccc(OCC(=O)Nc3ccc(C(=O)NO)cc3)c(OC)c2)cc1OC,cell growth or viability,CCK-8,,48 h,IC50,> 5000 nM
